Measured values pooled from the literature.
Every numbered part comes from another study and shows a few of its results, in no order. Substitutions count along the parent as printed.

Study 1
Target: Histone acetyltransferase KAT6A, winged helix 1, GST fusion (KAT6A, Homo sapiens, UniProt Q92794, residues 1-85)
Method: protein binding microarray
Form: double-stranded DNA, one strand shown
Matrix: in vitro
Tested at: not given
Setting: 8-mer, flanks averaged, mean of 2 arrays, mostly near background
Reference: not given
Reading: higher = stronger binding
Residues (chain): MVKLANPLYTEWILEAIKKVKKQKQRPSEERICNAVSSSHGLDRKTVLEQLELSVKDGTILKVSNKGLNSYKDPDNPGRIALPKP
Sequence	E-score
CTGTCCCC	0.0482
AGTTCCCA	-0.0499
CCACACAG	-0.285
AAACTAGA	-0.145
ACGATGAA	-0.108
ACCGATAT	0.0241
AGCGGTCA	0.299
TCGAAAAA	-0.0359
ATTCCATC	-0.112
TGGGGCAA	-0.246
GTAGTCGA	-0.125
ACGCGGAT	0.185
ACCCTCGG	0.0244
CCTTCTAA	-0.28
ACCATGTC	0.0714
TAAGTACA	-0.0952
ACTGACAA	-0.159
AGTAAGAA	-0.0519
ACGTATCA	-0.0128
AACTCCAG	-0.0662
ATCTCTAG	-0.197
ATCGATCG	-0.0605
AAGACGCA	-0.0133

Study 2
Target: UBE2N UBC core domain (UniProt P61088)
Method: yeast two-hybrid
Matrix: yeast
Setting: mostly zero background
Reference: not given
Reading: higher = stronger interaction
B1: TRIM69 RING domain (UniProt Q86WT6); chain VIQDITMELHCPLCNDWFRDPLMLSCGHNFCEACIQDFWRLQAKETFCPECKMLCQYNNCTF
B2: RC3H2 RING domain (UniProt Q9HBD1); chain QAAQWTEFLSCPICYNEFDENVHKPISLGCSHTVCKTCLNKLHRKACPFDQTAINTDIDVL
B3: RNF25 RING domain (UniProt Q96BH1); chain LTDNNIPHGQCVICLYGFQEKEAFTKTPCYHYFHCHCLARYIQHMEQELKAQGQEQEQERQHATTKQKAVGVQCPVCREPLVYDLASL
B4: ARK2C RING domain (UniProt Q6ZSG1); chain EGEESDTDEKCTICLSMLEDGEDVRRLPCMHLFHQLCVDQWLAMSKKCPICRVDIETQLGAD
B5: IRF2BPL RING domain (UniProt Q9H1B7); chain SPMANSGPLCCTICHERLEDTHFVQCPSVPSHKFCFPCSRESIKAQGATGEVYCPSGEKCPLVGSNVP
Construct (chain): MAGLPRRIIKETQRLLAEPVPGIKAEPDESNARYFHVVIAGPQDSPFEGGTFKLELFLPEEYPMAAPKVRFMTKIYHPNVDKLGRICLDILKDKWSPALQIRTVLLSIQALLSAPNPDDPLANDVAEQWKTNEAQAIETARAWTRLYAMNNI
Sequence	lacZ reporter activity
B1 (TRIM69 RING domain)	0
B2 (RC3H2 RING domain)	0
B3 (RNF25 RING domain)	0
VTLSLTLPITCHICLGKVRQPVICINNHVFCSICIDLWLKNNSQCPACRVPITPENPCK (OBI1 RING domain (UniProt Q5W0B1))	0
B4 (ARK2C RING domain)	4600
B5 (IRF2BPL RING domain)	0
RLTMMWEEVTCPICLDPFVEPVSIECGHSFCQECISQVGKGGGSVCPVCRQRFLLKNLRP (TRIM21 RING domain (UniProt P19474))	0

Study 3
Target: ABI1, truncated, D143A, DHFR fusion (Arabidopsis thaliana)
Method: DHFR PCA, deep sequencing
Matrix: yeast
Setting: methotrexate growth selection, single substitutions
With: (+)-ABA 710 µM
Reference: wild-type fitted maximum
Reading: higher = stronger binding
Starting sequence: PYL1, truncated, DHFR fusion (Arabidopsis thaliana); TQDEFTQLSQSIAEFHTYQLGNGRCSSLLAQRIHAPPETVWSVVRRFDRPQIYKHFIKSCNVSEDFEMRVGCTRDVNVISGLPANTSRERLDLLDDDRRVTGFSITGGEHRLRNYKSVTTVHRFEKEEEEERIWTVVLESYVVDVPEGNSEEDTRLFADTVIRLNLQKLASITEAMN
Change	relative binding score
R49E	99.3%
D75I	105%
F15C	86.1%
H16A	30.2%
R163V	64.1%
E67A	103%
L93S	90.5%
N77P	29.5%
E14C	96.5%
L112C	89.8%
G108L	26.5%
N77W	98.4%
R99P	21.1%
F157K	-5.28%
R90I	94.6%
D144G	72.2%
D97L	106%
F5A	100%

Study 4
Target: Interferon regulatory factor 5, full length, phosphomimetic (IRF5, Homo sapiens, UniProt Q13568-2, residues 1-514, K96S/S451D/S453D/S456D/S462D)
Method: protein-binding microarray
Form: double-stranded DNA, one strand shown
Matrix: in vitro
Tested at: 250 nM
Setting: 60-bp whole probe
With: salmon DNA 0.4 mg/ml
Reference: random background probes
Reading: higher = stronger binding
Constant ends, left off below: GCCTAGCAC … GTCTTGATTCGCTTGACGCTGCTG
Sequence	log fluorescence [z-score]
GGCGGTCTCCTTCTCCTGACGTGCTAG	-0.663
TAGACCTAGAAAGAAACCACGTGCTAG	0.621
GACAGTATCGGGTATCGGGACGTGCTA	5.9
GCCGATATCAGACTGGAGACGTGCTAG	0.595
GACGGTTTCGTACTGGGGACGTGCTAG	2.81
TTAGATCTCGGACTGGATTAGTGCTAG	-0.135
TTAGATATCGACTTTCGGTTAGTGCTA	10.1
GACGGTTTCGACGATCGGGACGTGCTA	4.95
GACGGCTTCGACACTGGGGACGTGCTA	-0.186
GACGGACTGCTACTGCTGCCGTGCTAG	-0.838
TTAGGACTGCTTTCCCTTTAGTGCTAG	0.807
GTCACATTGTGCAATCTTAATGTGCTA	0.135
GACGGTCTCCTTTTACTGACGTGCTAG	0.0369
AACGGTTTCCTTTTCCTGACGTGCTAG	1.6
ATGTGTTTACATATGTTTTTGTGCTAG	0.725
TTAGACTTCAGTATCGATTAGTGCTAG	7.07
TGAGGTATCGGGACTGGGTTAGTGCTA	0.663
TTAGATCTTAGACTGGATTAGTGCTAG	0.0833
TCAATTCTCACTGCAGCACTGTGCTAG	0.49

Study 5
Target: CCNB1, cyclin fold, Cln2 fusion (human)
Method: yeast growth competition, sequencing
Matrix: yeast
Setting: strong parent motif
Reference: not given
Reading: higher = stronger binding
Starting sequence: INSM1 docking peptide (human); PKAIRKLHFEDEV; partner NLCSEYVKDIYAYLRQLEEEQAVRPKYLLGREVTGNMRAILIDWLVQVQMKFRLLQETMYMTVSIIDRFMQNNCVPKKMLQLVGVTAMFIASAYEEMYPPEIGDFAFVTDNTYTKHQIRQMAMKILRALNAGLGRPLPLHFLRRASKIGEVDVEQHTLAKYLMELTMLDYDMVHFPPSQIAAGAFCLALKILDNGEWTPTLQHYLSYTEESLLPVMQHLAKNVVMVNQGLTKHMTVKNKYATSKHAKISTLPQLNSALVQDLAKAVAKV
Change	normalised enrichment score
D11L	0.944
E10D	2.31
E12H	1.37
A3F	2.31
F9A	-0.158
E10R	1.03
L7N	0.0981
D11T	0.907
R5V	1.04
F9T	0.0557
D11S	1.36
E10L	0.775
K6V	0.96
K2S	4.22
I4D	0.484
R5H	0.487
H8Y	3.15
E12A	1.69
F9P	0.326
F9Y	0.964
E12D	2.19
D11K	0.959
H8S	2.97
E10S	1.21
K6D	0.12
